Experimental data gathered from unrelated publications.
Lines come from different studies, so protocols differ. Numbers after ± are the reported error.

Structure (SMILES)	tested on	assay	test system	setting	quantity	result
O=C(CN1CCOCC1)Nc1ccc(C2CCCCC2)cc1	–	liver microsome stability	dog liver microsomes	1 µM	hepatic clearance	26 mL/min/kg
C[C@@H]1C(=O)O[C@@H](C)/C=C/C=C\[C@@H](C)[C@@H]2C=C[C@@H]3C[C@@]4(C)O[C@H]4[C@@H](C)[C@H]3[C@@H]2C(=O)C(Cl)(Cl)C1=O	Staphylococcus aureus	–	MRSA clinical isolate	OXA SXT resistant	MIC	0.1 µg/mL
CC[C@H](C)[C@H](NC(=O)[C@H](CCC(N)=O)NC(=O)[C@H](Cc1ccccc1)NC(=O)[C@H](CC(N)=O)NC(=O)[C@H](CCCCN)NC(=O)[C@H](CC(C)C)NC(=O)[C@H](CCCNC(=N)N)NC(=O)[C@H](CCCCN)NC(=O)[C@H](CCCCN)NC(=O)[C@@H](NC(=O)[C@H](CO)NC(=O)[C@H](CCCCN)NC(=O)CNC(=O)[C@H](CC(C)C)NC(=O)[C@H](CCCCN)NC(=O)[C@H](CCCCN)NC(=O)[C@H](CC(C)C)NC(=O)[C@H](CCCCN)NC(=O)[C@H](CCCCN)NC(=O)[C@H](CCCNC(=N)N)NC(=O)[C@H](CC(C)C)NC(=O)CNC(=O)[C@@H](N)CCCNC(=N)N)[C@@H](C)CC)C(=O)NCC(=O)N[C@@H](Cc1ccccc1)C(=O)N[C@@H](CO)C(=O)N[C@H](C(=O)N1CCC[C@H]1C(=O)N[C@@H](Cc1ccccc1)C(=O)N[C@@H](C)C(=O)NCC(=O)O)C(C)C	Bordetella bronchiseptica	broth microdilution	ATCC 10580	–	MIC	1.12 µM
O=C(NCc1cccc(Cl)c1)c1ccc([C@H]2[C@@H](F)[C@@H](F)C[C@@H](F)[C@H]2F)cc1	–	liver microsome stability	cynomolgus liver microsomes	1 µM	hepatic clearance	7.4 mL/min/kg
CC1(C)[C@H](NC(=O)/C(=N\OCC(=O)N2CCC[C@@H]2C(=O)O)c2nsc(N)n2)C(=O)N1OS(=O)(=O)O	Enterobacter aerogenes	agar dilution	ATCC 13048, susceptible	–	MIC	1 µg/mL
C=C(NC(=O)c1csc(-c2nc3c(cc2O)-c2nc(cs2)C(=O)NC(C(C)O)C(=O)NC(=C(C)OC)c2nc(cs2)C(=O)NC2c4nc(cs4)C(=O)NC(COC(=O)c4c5c6c(cccc6n4O)COC(=O)C(OC4CC(C)(O)C(N(C)C)C(C)O4)C2OC5)c2nc-3cs2)n1)C(N)=O (stereo not shown)	–	–	ICR mice, Streptococcus pneumoniae ATCC 49169 infected, immunocompromised, blood	intravenous, 32 mg/kg three times daily	AUC(0-t)	2.02 µM·h
CNC(C)C1CCC(N)C(OC2C(N)CC(N)C(OC3OCC(C)(O)C(NC)C3O)C2O)O1 (stereo not shown)	Listeria monocytogenes	–	1.108, glucose peptone yeast broth	18 to 20 h, 37 °C	MIC	2 µM
C=CCO/N=C(\C(=O)N[C@@H]1C(=O)N(OS(=O)(=O)O)C1(C)C)c1nsc(N)n1	Enterobacter aerogenes	agar dilution	ATCC 13048, susceptible	–	MIC	1 µg/mL
CC1C=CC=CC(C)C2C=CC3CC(C)(O)C(Cl)C(C)C3C2C(=O)C(Cl)(Cl)C(=O)C(C)C(=O)O1 (stereo not shown)	Staphylococcus aureus	–	MRSA clinical isolate	resistant: OXA,CLI,ERY,GEN,TET	MIC	0.05 µg/mL
COc1ccc(NC(=O)COc2cccc(OCC(C)C)c2)cc1	Lodderomyces parapsilosis	microbial growth, broth dilution	ATCC22019	–	MIC	2 µg/mL
CO[C@H]1/C=C/O[C@@]2(C)Oc3c(C)c(O)c4c(c3C2=O)C2=NC3(CCN(CC(C)C)CC3)NC2=C(NC(=O)/C(C)=C\C=C\[C@H](C)[C@H](O)[C@@H](C)[C@@H](O)[C@@H](C)[C@H](OC(=O)c2cccnc2)[C@@H]1C)C4=O	Mycobacteroides abscessus subsp. abscessus	–	K21 clinical isolate	90% growth inhibition	MIC	0.033 µM
CC1(C)[C@H](NC(=O)/C(=N\OCc2c(Cl)cccc2Cl)c2csc(N)n2)C(=O)N1OS(=O)(=O)O	Enterobacter aerogenes	agar dilution	ATCC 13048, susceptible	–	MIC	2 µg/mL
O=C(N/N=C/c1ccc2c(ccc[n+]2Cc2ccccc2)c1)N/N=C/c1ccc2c(ccc[n+]2Cc2ccccc2)c1	22CTA telomeric G4-DNA antiparallel	FRET melting	–	1 µM, K10 buffer, DNA 0.2 µM	ΔTm	11.7 ± 1 °C

Excerpt of the above:
Structure (SMILES)	tested on	assay	test system	setting	quantity	result
C[C@@H]1C(=O)O[C@@H](C)/C=C/C=C\[C@@H](C)[C@@H]2C=C[C@@H]3C[C@@]4(C)O[C@H]4[C@@H](C)[C@H]3[C@@H]2C(=O)C(Cl)(Cl)C1=O	Staphylococcus aureus	–	MRSA clinical isolate	OXA SXT resistant	MIC	0.1 µg/mL
CO[C@H]1/C=C/O[C@@]2(C)Oc3c(C)c(O)c4c(c3C2=O)C2=NC3(CCN(CC(C)C)CC3)NC2=C(NC(=O)/C(C)=C\C=C\[C@H](C)[C@H](O)[C@@H](C)[C@@H](O)[C@@H](C)[C@H](OC(=O)c2cccnc2)[C@@H]1C)C4=O	Mycobacteroides abscessus subsp. abscessus	–	K21 clinical isolate	90% growth inhibition	MIC	0.033 µM
